Measured values collected from several papers.
Parts stem from different laboratories: compare values within a part only. Changes are numbered by the printed parent chain.
Chain of UniProt Q9FKM7 (whole entry, looked up): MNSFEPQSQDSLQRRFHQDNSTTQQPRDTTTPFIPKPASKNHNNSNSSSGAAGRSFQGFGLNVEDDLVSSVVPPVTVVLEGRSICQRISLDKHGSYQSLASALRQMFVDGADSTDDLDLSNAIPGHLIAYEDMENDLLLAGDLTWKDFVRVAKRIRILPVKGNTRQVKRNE
Chain of UniProt Q8L7G0 (whole entry, looked up): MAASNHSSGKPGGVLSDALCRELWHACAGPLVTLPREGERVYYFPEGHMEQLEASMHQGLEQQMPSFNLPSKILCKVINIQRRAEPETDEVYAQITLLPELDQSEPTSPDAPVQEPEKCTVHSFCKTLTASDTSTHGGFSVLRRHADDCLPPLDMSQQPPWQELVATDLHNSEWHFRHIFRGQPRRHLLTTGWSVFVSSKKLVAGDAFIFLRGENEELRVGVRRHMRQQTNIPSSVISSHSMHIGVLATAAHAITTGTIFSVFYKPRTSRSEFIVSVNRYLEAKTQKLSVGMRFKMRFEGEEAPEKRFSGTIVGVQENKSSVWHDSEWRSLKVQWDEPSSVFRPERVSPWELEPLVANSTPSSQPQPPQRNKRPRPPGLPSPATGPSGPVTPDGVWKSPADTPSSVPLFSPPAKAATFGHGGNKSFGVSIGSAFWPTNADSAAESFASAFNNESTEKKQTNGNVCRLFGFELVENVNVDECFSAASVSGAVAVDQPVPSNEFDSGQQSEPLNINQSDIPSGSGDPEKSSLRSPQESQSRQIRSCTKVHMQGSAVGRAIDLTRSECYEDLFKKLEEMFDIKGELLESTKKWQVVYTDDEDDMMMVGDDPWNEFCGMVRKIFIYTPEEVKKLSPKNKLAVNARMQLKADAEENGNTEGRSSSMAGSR
Chain of UniProt Q9M1R4 (whole entry, looked up): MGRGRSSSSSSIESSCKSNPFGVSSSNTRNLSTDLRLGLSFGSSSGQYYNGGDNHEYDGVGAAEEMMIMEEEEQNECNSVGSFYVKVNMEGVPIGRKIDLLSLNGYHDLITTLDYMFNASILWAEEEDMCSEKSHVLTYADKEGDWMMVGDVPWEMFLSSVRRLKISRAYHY
Chain of UniProt Q8RYC6 (whole entry, looked up): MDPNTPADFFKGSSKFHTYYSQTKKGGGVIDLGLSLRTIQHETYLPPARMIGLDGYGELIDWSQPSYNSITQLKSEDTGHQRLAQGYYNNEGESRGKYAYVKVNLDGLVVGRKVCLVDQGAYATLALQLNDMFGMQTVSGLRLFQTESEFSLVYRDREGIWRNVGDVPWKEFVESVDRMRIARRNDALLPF
Chain of UniProt P93022 (whole entry, looked up): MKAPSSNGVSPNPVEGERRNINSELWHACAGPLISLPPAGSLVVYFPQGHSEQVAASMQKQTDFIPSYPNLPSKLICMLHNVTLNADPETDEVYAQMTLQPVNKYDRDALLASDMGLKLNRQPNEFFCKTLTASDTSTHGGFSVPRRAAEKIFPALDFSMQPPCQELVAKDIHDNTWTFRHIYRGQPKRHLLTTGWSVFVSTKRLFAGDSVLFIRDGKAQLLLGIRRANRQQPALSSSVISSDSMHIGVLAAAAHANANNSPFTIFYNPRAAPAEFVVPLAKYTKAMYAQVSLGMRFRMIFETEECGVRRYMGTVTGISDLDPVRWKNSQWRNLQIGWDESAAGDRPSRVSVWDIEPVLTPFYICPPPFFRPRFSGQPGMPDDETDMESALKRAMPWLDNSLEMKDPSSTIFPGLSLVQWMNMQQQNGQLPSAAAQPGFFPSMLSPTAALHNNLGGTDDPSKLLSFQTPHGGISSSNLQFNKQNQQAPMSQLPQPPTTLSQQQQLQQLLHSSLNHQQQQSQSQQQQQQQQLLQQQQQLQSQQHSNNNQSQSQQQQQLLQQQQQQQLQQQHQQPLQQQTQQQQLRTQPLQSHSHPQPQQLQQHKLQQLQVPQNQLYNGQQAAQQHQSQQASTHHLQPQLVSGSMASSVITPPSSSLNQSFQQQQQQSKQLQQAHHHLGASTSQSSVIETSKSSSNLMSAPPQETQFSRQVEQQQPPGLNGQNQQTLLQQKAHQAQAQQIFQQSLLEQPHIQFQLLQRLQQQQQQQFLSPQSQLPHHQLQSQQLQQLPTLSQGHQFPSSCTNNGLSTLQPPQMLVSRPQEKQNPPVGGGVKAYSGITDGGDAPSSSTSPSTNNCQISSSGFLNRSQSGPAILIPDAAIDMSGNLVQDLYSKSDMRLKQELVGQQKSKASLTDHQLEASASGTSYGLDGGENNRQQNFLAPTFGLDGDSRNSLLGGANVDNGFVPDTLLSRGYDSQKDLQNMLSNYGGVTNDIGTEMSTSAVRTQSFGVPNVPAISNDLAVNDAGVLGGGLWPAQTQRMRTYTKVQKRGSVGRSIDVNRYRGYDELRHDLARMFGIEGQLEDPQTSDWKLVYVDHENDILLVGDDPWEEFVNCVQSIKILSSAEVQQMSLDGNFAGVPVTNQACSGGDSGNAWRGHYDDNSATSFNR
Chain of UniProt Q9ZTX9 (whole entry, looked up): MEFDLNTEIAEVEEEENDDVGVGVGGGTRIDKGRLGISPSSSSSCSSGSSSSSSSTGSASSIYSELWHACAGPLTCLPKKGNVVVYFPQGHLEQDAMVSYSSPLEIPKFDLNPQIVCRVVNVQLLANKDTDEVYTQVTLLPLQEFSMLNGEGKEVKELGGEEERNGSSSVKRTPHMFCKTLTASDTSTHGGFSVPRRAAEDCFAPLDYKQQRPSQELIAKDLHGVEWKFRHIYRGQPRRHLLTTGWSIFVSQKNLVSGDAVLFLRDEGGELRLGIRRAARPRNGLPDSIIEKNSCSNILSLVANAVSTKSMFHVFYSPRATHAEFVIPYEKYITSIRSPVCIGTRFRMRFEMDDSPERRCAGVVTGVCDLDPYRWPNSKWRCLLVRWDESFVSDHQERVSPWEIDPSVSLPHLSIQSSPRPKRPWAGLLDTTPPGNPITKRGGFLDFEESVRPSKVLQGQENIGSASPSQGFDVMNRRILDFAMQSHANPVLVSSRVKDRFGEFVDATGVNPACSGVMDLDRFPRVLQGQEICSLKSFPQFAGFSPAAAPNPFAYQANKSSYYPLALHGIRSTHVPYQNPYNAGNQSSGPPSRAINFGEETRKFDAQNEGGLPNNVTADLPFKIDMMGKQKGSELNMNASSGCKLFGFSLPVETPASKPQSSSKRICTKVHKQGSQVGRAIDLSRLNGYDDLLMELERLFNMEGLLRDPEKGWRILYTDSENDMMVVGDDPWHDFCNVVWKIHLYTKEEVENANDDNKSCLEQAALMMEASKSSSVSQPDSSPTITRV
Chain of UniProt Q93WC4 (whole entry, looked up): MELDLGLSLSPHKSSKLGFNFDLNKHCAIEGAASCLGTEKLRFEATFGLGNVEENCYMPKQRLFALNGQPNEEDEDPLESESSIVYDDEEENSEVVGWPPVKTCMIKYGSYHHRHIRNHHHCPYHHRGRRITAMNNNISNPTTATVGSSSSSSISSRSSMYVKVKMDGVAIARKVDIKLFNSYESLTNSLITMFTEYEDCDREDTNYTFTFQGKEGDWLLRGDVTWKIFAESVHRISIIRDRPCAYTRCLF
Chain of UniProt Q9ZTX8 (whole entry, looked up): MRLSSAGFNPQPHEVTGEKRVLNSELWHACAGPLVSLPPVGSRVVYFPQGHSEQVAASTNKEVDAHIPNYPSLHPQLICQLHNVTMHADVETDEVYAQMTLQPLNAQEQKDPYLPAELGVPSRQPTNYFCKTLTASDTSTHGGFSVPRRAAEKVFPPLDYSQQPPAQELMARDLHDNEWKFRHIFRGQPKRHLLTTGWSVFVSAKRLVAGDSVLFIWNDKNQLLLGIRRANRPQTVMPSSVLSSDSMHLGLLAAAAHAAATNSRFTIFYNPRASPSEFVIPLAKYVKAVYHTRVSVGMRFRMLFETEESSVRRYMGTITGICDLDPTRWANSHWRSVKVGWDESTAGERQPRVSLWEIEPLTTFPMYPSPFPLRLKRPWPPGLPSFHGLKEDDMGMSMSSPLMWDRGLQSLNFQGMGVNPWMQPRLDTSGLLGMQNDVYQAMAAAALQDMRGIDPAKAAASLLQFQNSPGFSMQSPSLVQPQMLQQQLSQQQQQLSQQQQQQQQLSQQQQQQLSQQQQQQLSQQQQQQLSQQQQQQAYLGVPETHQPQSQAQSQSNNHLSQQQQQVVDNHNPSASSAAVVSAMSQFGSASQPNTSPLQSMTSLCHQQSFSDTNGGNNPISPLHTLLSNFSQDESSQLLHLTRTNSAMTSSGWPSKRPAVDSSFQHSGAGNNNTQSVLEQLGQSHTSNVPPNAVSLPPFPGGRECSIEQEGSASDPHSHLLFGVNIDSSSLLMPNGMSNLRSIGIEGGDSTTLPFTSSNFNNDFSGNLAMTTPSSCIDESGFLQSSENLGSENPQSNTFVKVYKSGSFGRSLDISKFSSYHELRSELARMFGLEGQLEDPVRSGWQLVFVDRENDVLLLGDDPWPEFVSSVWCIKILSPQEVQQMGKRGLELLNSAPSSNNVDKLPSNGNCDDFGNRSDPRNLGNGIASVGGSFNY

Series 1 — target: CCND1, cyclin fold, Cln2 fusion (human); method: yeast growth competition, sequencing; sample: yeast; setting: weak parent motif; relative to: not given; reading: higher = stronger binding
Starting sequence: HIRA docking peptide (human); SLSKRKLELEVET; partner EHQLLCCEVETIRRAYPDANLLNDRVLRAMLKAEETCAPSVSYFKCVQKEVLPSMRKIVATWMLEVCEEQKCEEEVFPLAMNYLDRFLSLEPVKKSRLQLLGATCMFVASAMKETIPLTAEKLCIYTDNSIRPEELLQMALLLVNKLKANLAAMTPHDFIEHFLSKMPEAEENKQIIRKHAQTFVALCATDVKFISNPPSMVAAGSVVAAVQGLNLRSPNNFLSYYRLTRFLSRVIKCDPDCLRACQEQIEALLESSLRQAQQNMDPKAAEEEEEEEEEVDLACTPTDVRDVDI
| Change | normalised enrichment score |
| --- | --- |
| SLSKRKLELEVEA [T13A] | 0.632 |
| SLSKKKLEFEVET [R5K L9F] | 0.58 |
| SLSKAKAELEVET [R5A L7A] | 0.697 |
| SLSKAKLELEVET [R5A] | 0.481 |
| SLSKRKLELEAET [V11A] | -0.113 |
| ALSKRKLELEVET [S1A] | 0.516 |
| SLSKRALELEVET [K6A] | 1.04 |
| SLSARKLELEVET [K4A] | -0.127 |

Series 2 — method: RNA Bind-n-Seq; molecule type: RNA; sample: in vitro; concentration: 90 pmol; setting: 4-mer, random 30-nt RNA, single round; relative to: input library; reading: higher = stronger binding
Target: ATP-dependent RNA helicase DDX3X, helicase core (DDX3X, Homo sapiens, UniProt O00571, residues 132-607)
Chain of UniProt O00571 (132-607, looked up): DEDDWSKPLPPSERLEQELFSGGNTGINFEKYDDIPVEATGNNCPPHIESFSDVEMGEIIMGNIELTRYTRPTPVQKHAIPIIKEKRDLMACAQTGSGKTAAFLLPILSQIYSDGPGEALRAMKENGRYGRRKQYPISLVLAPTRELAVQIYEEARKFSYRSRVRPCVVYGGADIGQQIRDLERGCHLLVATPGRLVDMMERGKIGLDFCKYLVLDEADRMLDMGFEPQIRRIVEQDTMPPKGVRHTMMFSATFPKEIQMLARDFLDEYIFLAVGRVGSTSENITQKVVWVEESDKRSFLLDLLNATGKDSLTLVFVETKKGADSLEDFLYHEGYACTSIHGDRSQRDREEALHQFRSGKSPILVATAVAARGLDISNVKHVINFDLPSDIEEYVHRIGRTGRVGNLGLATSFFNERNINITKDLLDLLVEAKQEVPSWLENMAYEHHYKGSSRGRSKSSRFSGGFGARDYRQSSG
Together with: 3 µM iPr-DMDA-PatA, 2 mM ADP, 2 mM phosphate
| Sequence | 4-mer enrichment [fold] |
| --- | --- |
| GGGC | 0.725 |
| CCCC | 1.48 |
| UCAC | 1.06 |
| GGGA | 1.24 |
| CAAG | 1.14 |
| GCGG | 0.768 |
| UACU | 0.96 |
| GGAG | 1.19 |

Series 3 — Molecule: B1 (IAA28); method: two-hybrid; reading: higher = firmer interaction
B1: IAA28 (Arabidopsis thaliana, UniProt Q9XFM0); chain MEEEKRLELRLAPPCHQFTSNNNINGSKQKSSTKETSFLSNNRVEVAPVVGWPPVRSSRRNLTAQLKEEMKKKESDEEKELYVKINMEGVPIGRKVNLSAYNNYQQLSHAVDQLFSKKDSWDLNRQYTLVYEDTEGDKVLVGDVPWEMFVSTVKRLHVLKTSHAFSLSPRKHGKE
| partner | setting | relative to | positive tests |
| --- | --- | --- | --- |
| IAA29 (Arabidopsis thaliana, UniProt Q93WC4) |  | out of 3 tests | 1 |
| ARF4 660-788 (Arabidopsis thaliana, UniProt Q9ZTX9) |  | out of 4 tests | 0 |
| IAA33 (Arabidopsis thaliana, UniProt Q9FKM7) |  | out of 4 tests | 2 |
| ARF1 538-665 (Arabidopsis thaliana, UniProt Q8L7G0) |  | out of 4 tests | 0 |
| IAA30 (Arabidopsis thaliana, UniProt Q9M1R4) | weak activation fusion | out of 4 tests | 2 |
| IAA32 (Arabidopsis thaliana, UniProt Q8RYC6) |  | out of 2 tests | 0 |
| ARF6 790-935 (Arabidopsis thaliana, UniProt Q9ZTX8) |  | out of 4 tests | 3 |
| ARF7 1030-1164 (Arabidopsis thaliana, UniProt P93022) |  | out of 4 tests | 4 |

Further values, each from its own experiment
Starting sequence: PafA, mature enzyme, eGFP fusion (Elizabethkingia meningoseptica, UniProt Q9KJX5); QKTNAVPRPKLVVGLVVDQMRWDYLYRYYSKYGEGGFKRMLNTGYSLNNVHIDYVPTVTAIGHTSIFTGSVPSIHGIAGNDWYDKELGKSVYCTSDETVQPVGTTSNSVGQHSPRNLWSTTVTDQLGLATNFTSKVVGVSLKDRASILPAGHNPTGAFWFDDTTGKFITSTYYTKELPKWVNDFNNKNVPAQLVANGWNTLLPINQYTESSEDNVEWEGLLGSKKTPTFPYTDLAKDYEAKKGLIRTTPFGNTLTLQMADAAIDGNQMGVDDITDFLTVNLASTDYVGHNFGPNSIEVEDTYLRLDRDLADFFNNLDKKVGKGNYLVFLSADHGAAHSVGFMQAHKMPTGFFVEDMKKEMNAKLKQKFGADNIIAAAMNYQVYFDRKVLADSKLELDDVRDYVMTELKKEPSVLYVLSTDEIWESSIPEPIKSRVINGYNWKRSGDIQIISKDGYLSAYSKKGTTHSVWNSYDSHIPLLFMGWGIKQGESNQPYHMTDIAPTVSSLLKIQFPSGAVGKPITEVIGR
| Change | target | assay | test system | conditions | scale | endpoint | value |
| --- | --- | --- | --- | --- | --- | --- | --- |
| V320A | vanadate, free oxyanion | microfluidic competitive inhibition | in vitro, cell-free expressed | not given, derived from inhibition constants, unchanged parent 676 nM | lower = stronger binding | oxyanion analog dissociation constant | 519 nM |

A few entries again (series 3):
| partner | setting | relative to | positive tests |
| --- | --- | --- | --- |
| ARF6 790-935 (Arabidopsis thaliana, UniProt Q9ZTX8) |  | out of 4 tests | 3 |
